Results of several laboratories.
Lines come from different studies, so protocols differ. Values joined by “and” are separate records of one study, mostly repeats; a detail may differ. ± gives the spread as reported.
GRM4: Metabotropic glutamate receptor 4 (GRM4, Homo sapiens, UniProt Q14833)
RPA1 N-terminal domain: Replication protein A 70 kDa DNA-binding subunit, N-terminal domain (RPA1, Homo sapiens, UniProt P27694)
MAPK8: Mitogen-activated protein kinase 8 (MAPK8, Homo sapiens, UniProt P45983)
E3 ubiquitin-protein ligase NEDD4: E3 ubiquitin-protein ligase NEDD4 (Homo sapiens, UniProt P46934)
Lysophospholipase-like protein 1: Lysophospholipase-like protein 1 (Mus musculus, UniProt Q3UFF7)

Amino acid sequences for entries named in this document (tags omitted). Residues count along the entry.
UniProt Q14833, 33-912 limits assumed: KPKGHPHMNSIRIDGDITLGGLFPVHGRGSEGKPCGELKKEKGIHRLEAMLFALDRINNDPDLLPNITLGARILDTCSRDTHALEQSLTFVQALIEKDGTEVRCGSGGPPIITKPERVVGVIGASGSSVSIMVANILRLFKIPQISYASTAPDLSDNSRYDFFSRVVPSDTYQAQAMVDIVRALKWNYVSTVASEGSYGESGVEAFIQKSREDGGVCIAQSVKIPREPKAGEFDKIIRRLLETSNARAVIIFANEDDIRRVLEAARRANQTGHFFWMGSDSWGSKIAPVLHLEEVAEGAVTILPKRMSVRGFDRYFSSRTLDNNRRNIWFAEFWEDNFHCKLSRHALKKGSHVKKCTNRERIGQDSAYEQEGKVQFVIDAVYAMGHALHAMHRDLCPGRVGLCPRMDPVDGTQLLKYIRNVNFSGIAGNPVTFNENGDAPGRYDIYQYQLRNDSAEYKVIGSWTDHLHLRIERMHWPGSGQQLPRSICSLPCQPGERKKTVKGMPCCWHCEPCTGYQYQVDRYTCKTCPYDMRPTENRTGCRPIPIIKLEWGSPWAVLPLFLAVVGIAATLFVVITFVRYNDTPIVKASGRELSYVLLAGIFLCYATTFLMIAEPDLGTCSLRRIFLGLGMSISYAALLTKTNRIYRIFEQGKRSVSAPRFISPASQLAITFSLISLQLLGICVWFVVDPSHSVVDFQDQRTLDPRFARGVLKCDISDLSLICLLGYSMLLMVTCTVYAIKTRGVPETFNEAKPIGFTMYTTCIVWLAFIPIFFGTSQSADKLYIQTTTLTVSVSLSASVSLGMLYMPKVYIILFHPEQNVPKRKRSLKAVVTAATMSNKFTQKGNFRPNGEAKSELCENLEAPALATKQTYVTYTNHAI
UniProt P45983, 1-384 isoform 3: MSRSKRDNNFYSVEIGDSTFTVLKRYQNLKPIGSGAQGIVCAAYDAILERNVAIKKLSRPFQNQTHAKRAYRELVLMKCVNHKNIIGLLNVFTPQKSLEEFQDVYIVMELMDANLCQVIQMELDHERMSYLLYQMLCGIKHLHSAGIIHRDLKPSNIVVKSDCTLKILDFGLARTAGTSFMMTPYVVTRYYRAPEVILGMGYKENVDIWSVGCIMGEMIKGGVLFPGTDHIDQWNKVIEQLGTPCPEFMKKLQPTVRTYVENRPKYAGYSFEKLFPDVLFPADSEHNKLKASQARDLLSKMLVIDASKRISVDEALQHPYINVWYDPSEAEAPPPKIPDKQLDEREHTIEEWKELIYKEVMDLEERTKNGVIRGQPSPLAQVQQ
UniProt P46934, whole entry, looked up: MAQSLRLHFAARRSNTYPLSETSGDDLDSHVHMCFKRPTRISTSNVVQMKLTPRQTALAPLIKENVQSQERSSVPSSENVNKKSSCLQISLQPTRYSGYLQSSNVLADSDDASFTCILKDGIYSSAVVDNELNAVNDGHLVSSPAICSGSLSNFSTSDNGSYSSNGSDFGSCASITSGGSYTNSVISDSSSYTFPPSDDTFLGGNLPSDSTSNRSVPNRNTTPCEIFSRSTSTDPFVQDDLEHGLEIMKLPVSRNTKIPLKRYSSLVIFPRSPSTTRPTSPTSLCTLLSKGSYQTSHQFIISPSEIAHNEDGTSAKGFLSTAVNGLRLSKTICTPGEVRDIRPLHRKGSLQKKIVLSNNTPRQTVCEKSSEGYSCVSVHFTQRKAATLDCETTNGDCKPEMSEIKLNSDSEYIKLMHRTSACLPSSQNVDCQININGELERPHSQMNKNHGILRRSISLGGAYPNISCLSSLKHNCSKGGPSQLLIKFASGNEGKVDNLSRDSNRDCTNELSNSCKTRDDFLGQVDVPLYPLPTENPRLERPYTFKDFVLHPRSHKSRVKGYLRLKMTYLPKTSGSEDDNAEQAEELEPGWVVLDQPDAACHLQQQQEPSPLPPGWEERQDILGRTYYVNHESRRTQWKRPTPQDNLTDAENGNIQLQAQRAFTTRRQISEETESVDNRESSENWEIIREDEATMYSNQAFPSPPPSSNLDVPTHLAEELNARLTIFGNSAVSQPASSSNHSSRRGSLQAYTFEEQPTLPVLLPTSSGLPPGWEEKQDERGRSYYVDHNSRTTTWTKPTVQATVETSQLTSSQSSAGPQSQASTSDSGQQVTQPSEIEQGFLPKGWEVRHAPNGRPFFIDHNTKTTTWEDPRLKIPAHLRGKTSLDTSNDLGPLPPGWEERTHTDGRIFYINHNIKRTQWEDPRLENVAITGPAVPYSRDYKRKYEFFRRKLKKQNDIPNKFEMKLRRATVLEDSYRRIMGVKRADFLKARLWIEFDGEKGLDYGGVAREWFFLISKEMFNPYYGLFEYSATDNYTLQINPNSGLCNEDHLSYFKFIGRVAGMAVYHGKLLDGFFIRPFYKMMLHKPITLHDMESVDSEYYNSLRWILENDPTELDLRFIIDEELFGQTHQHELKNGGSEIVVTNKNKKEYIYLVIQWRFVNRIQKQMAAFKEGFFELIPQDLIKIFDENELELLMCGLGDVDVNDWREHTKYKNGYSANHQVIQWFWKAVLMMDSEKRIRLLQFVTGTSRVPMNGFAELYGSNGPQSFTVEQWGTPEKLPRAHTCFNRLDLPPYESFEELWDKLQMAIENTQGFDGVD
UniProt Q3UFF7, whole entry: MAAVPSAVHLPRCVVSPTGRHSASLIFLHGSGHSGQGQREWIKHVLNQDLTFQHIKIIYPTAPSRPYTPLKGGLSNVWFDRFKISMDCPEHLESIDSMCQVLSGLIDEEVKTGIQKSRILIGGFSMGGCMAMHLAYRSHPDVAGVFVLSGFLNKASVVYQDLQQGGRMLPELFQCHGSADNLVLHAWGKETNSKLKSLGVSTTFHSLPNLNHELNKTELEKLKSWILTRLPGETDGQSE
UniProt O60502, whole entry: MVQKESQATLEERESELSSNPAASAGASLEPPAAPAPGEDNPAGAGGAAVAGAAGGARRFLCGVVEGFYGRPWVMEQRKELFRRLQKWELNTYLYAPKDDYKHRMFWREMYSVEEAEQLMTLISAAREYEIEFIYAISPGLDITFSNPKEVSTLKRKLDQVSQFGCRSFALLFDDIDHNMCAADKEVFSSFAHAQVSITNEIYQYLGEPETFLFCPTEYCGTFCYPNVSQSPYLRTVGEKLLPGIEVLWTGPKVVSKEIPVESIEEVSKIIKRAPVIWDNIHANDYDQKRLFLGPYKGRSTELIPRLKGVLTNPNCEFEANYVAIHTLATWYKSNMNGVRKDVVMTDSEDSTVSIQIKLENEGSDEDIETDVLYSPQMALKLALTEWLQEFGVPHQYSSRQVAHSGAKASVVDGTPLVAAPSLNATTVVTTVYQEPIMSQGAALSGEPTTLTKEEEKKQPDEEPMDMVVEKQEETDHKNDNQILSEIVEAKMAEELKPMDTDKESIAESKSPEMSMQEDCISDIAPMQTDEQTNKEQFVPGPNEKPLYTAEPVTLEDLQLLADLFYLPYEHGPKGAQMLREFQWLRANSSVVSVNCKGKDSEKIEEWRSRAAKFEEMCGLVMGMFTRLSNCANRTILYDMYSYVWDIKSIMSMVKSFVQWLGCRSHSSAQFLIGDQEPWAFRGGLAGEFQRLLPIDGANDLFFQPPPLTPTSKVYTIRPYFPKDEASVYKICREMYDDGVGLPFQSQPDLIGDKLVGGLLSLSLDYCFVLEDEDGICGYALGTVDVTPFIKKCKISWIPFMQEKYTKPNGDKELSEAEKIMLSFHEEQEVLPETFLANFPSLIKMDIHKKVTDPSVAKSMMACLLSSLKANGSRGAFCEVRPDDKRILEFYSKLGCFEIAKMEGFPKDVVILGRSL
UniProt P42568, 1-140 limits assumed: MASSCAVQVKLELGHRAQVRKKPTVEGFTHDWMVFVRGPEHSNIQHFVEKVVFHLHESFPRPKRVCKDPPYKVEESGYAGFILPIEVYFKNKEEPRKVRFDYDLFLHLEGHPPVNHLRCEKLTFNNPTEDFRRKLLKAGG
UniProt P46154, whole entry: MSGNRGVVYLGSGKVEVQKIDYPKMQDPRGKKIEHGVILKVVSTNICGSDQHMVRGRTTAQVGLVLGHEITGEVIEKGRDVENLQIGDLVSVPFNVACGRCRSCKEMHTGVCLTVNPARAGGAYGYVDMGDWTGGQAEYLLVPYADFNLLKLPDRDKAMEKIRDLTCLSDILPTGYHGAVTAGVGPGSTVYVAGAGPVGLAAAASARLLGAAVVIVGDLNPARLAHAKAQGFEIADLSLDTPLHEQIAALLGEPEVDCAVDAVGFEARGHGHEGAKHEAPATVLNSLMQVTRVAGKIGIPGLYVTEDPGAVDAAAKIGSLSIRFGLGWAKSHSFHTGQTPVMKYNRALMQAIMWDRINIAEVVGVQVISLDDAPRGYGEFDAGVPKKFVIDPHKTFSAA
UniProt P43220, whole entry, looked up: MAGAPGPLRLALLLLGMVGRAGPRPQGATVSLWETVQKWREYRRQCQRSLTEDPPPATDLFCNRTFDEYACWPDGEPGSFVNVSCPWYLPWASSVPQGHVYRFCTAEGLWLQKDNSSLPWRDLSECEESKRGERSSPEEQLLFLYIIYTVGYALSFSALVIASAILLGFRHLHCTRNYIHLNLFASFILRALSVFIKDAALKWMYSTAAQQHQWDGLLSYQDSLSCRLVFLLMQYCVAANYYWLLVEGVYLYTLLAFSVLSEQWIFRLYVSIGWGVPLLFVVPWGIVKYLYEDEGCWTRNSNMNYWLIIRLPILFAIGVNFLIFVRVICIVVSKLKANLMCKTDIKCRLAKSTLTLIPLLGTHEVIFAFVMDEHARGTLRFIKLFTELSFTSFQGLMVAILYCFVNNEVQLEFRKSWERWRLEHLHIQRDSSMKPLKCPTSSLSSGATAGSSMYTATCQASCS
UniProt Q96SW2, whole entry: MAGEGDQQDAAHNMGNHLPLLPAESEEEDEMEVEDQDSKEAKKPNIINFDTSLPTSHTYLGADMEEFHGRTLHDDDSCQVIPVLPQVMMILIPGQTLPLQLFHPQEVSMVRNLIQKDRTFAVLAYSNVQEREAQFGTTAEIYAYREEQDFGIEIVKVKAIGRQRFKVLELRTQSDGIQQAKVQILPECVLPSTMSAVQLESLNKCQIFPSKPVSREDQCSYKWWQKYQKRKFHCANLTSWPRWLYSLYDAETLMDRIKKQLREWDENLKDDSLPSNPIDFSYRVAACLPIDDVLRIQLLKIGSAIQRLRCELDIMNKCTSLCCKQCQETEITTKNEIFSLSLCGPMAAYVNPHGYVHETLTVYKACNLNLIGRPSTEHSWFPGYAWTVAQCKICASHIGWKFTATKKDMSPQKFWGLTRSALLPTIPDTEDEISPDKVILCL
UniProt Q2M2I8, whole entry: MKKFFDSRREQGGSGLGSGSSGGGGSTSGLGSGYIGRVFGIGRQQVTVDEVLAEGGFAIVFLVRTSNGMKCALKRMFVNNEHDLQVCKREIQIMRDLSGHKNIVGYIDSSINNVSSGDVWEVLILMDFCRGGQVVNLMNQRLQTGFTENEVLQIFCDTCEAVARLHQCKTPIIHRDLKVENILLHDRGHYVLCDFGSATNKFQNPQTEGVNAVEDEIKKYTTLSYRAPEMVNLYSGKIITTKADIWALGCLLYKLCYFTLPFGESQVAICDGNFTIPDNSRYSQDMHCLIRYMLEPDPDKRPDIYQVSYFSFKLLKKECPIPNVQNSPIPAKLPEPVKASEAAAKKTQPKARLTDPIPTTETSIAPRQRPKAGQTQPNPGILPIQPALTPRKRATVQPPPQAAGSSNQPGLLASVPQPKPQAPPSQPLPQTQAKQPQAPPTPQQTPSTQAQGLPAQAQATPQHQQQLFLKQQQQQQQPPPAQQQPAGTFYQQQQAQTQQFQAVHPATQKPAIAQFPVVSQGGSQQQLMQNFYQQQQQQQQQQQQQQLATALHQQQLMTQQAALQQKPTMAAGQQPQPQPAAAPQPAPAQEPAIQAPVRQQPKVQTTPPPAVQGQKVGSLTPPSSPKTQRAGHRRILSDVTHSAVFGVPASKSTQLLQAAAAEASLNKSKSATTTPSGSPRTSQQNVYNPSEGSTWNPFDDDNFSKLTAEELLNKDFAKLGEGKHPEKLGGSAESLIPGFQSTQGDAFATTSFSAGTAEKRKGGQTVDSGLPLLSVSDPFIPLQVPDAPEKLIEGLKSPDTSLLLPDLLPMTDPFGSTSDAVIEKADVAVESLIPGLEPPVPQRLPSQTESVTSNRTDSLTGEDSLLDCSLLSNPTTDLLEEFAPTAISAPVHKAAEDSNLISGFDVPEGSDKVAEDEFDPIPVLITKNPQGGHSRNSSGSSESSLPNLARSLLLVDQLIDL
UniProt P19784, whole entry: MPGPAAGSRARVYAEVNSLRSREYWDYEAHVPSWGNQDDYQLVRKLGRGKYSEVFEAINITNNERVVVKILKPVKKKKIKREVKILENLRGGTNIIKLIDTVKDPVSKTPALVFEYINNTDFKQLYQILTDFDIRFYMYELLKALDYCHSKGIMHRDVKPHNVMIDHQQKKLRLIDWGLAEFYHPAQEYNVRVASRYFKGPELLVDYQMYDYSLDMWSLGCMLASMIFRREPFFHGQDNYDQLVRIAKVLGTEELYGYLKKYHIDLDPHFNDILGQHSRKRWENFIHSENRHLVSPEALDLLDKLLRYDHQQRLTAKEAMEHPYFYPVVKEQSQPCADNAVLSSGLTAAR

Structure (SMILES)	target or system	assay	test system	conditions	scale	quantity	result
Cc1cc(SCc2sc(-c3ccncc3)nc2C)ccc1OCC(=O)O	Vitamin D3 receptor (VDR, Homo sapiens, UniProt P11473)	reporter gene, antagonist	HEK-293T	up to 100 µM, CYP24A1 promoter luciferase, with: 1,25(OH)2D3 10 nM	–	IC50	inactive
CN(C)C(=O)Cn1cc(-c2ccc(-c3cncc4ccncc34)cc2)cn1	CDK9 (Homo sapiens, UniProt P50750)	enzyme activity, SelectScreen	–	concentration not given	–	inhibition	no inhibition
CCOC(=O)C1OC1C(=O)N(CC(N)=O)NC(=O)C1CCCN1C(C)=O (stereo not drawn)	Legumain (Mus musculus, UniProt O89017)	inhibitor	–	pH 5.8, with: Cbz-Ala-Ala-Asn-AMC 10 µM	–	kobs/[I]	27400 M⁻¹ s⁻¹
COc1ccc(NC(=O)CN2CCCN(S(=O)(=O)c3ccc(C)cc3C)CC2)c(OC)c1	GRM4	calcium mobilization, positive allosteric modulator	CHO cells with Gqi5	with: glutamate	reference: PHCCC maximal response	maximal response	42.8%
CC(=O)N[C@@H](CCC(N)=O)C(=O)N[C@H](C(=O)N[C@@H](C)C(=O)N[C@@H](CCCNC(=N)N)C(=O)N[C@@H](CCCCNC(=O)CCc1ccc(N=Nc2ccc(N(C)C)cc2)cc1)C(=O)N[C@@H](CO)C(=O)N[C@H](C(=O)NCC(=O)NCC(=O)NCCCNC(=S)Nc1ccc2c(c1)C(=O)OC21c2ccc(O)cc2Oc2cc(O)ccc21)[C@@H](C)O)[C@@H](C)O	SIRT3 (Homo sapiens, UniProt Q9NTG7)	enzyme activity, substrate, plate reader kinetics	–	2.5 µM, 60 nM enzyme, with: NAD+	–	Km of NAD+	400 µM
COc1cc([C@@H]2c3cc4c(cc3[C@](O)(C3(O)CCOCC3)[C@H]3COC(=O)[C@H]23)OCO4)cc(OC)c1OC	Leishmania	–	mouse splenocytes	–	reference: CC50 over amastigote EC50	selectivity index	0.7
CC(=O)N[C@@H](CC(C)C)C(=O)N[C@H](C(=O)N[C@@H](CO)C(=O)N[C@@H](CCCNC(=N)N)C(=O)Nc1ccc2c(CC(N)=O)cc(=O)oc2c1)C(C)C	MALT1 (Homo sapiens, UniProt Q9UDY8)	substrate, fluorogenic peptide hydrolysis	–	–	reference: cpd over Leu-Arg-Ser-Arg peptide	kcat/Km ratio	3 to 4 fold
NC(=O)c1cn(-c2ccc(F)cc2)c2ccc(CN3CCCS(=O)(=O)CC3)cc2c1=O	Grm2 (Rattus norvegicus, UniProt P31421)	calcium mobilization, negative allosteric modulator	–	30 µM, with: glutamate 100 µM	reference: glutamate maximum	response	1.24 ± 0.04%
CCc1ccc(NC(=O)c2ccc(C)c(S(=O)(=O)Nc3ccc(Cl)c(Cl)c3)c2)c(C(=O)O)c1	RPA1 N-terminal domain	binding, fluorescence polarisation competition	–	with: FITC-ATRIP probe	–	ligand efficiency	0.23
CC(=O)Nc1ncc(CN2CC[C@H](Oc3cccc(F)n3)C[C@@H]2C)s1 [isotope labelled]	Protein O-GlcNAcase (OGA, Homo sapiens, UniProt O60502)	saturation binding	human striatum homogenate	radiolabelled compound	–	Bmax	36.7 ± 2.6 nM
O=C(Nc1ccc(C(=O)N2CC(c3nccs3)C2)s1)[C@@H]1CCCN1	Protein AF-9 (Homo sapiens, UniProt P42568)	–	–	concentration not given, AF9	–	binding	no binding
COc1ccc(Nc2c(C(=O)O)ccnc2C(=O)O)cc1	fdhA (Pseudomonas putida, UniProt P46154)	inhibitor, spectrophotometric	–	200 µM, counterscreen	–	remaining activity	78%
Cc1ncsc1-c1ccc([C@H](C)NC(=O)[C@@H]2C[C@@H](O)CN2C(=O)[C@@H](NC(=O)CCCCCCC(=O)N2CCN(C[C@]3(C)CCC(c4ccc(Cl)cc4)=C(CN4CCN(c5ccc(C(=O)NS(=O)(=O)c6ccc(N[C@H](CCN7CCOCC7)CSc7ccccc7)c(S(=O)(=O)C(F)(F)F)c6)cc5)CC4)C3)CC2)C(C)(C)C)cc1	–	–	STAM mice NASH-HCC model, liver	day 150, treated days 90-150	–	liver steatosis	decreased
COc1ccc2[nH]cc(/C=C/c3cccc([N+](=O)[O-])c3)c2c1	Amyloid-beta precursor protein, Aβ1-40 (APP, Homo sapiens, UniProt P05067)	Aβ40 aggregation, thioflavin T fluorescence	–	25 µM	–	inhibition	41%
COC(=O)[C@@]1(C)C=C(C(=O)Nc2cccc(C(=O)NC34CC(Nc5nccc(-c6cccnc6)n5)(C3)C4)c2)C(=O)CC1	MAPK8	kinase activity, inhibitor	–	0.5487 µM, unit not given, with: 10 mM GSH	reference: DMSO	remaining activity	0.0941
NCC(c1ccccc1)c1cccc(Oc2ccccc2)c1 (stereo not drawn)	Trace amine-associated receptor 1 (Rattus norvegicus, UniProt Q923Y9, M268T/N287Y)	cAMP production, agonist	–	double mutant	reference: wild type	efficacy decrease	44 to 85%
CCOC(=O)/C=C/CNCCCCCN1c2ccccc2CCc2ccc(Cl)cc21	E3 ubiquitin-protein ligase NEDD4	inhibitor, Ub-TR-FRET	–	0.04572 µM, 1 h preincubation, HECT domain, with: ATP 2 mM	higher = more ubiquitination	ubiquitination TR-FRET signal AUC	68200 a.u. and 102000 a.u. and 97300 a.u. and 70500 a.u. and 70900 a.u. and 94900 a.u.
Cc1[nH]c2cc(Cl)cc(Cl)c2c1CCn1cc(CCN)nn1	GLP1R (Homo sapiens, UniProt P43220)	cAMP accumulation, positive allosteric modulator, HTRF	–	0.6 µM, purified compound, with: GLP-1(9-36) at EC20	reference: BETP	Emax	100 ± 9%

Structure (SMILES)	target or system	assay	test system	conditions	scale	quantity	result
Nc1nc(SCc2ccc(Cl)cc2)nn1S(=O)(=O)c1ccoc1	Lysophospholipase-like protein 1	activator, gel-based ABPP, FP-rhodamine	HEK293 overexpressing Lysophospholipase-like protein 1	10 µM	–	activation	49%
O=C(Nc1cccc(F)c1)c1cc(S(=O)(=O)N2CCOCC2)c(Cl)cc1Cl	Autotaxin (ENPP2, Homo sapiens, UniProt Q13822)	enzyme activity, inhibitor, TLC densitometry, item: fluorescent LPA	–	10 µM, 4 h, 37 °C, with: 30 µM fluorescent LPC substrate	–	inhibition	85 ± 11%
Cc1cc(NC(=O)c2cccc(NC(=O)C3=CC(C)(C)CCC3=O)c2)ccc1Nc1nccc(-c2cccnc2)n1	MAPK8	kinase activity, inhibitor	–	0.06097 µM, unit not given, with: 10 mM GSH	reference: DMSO	remaining activity	0.864
Nc1nc(SCc2ccc(Cl)c(Cl)c2)nn1S(=O)(=O)c1ccc2c(c1)CCO2	Lysophospholipase-like protein 1	activator, gel-based ABPP, FP-rhodamine	HEK293 overexpressing Lysophospholipase-like protein 1	10 µM	–	activation	74%
COC(=O)[C@@H]1C(c2nc3ccccc3o2)=Cc2cc3c(cc2[C@H]1c1cc(OC)c(OC)c(OC)c1)OCO3	Leishmania infantum	iRFP fluorescence	mouse splenocytes infected, amastigote, iRFP, ex vivo splenic explant	48 h	–	EC50	4.5 ± 0.1 µM
CC(C)C[C@H](NC(=O)[C@@H]1CCCN1C(=O)[C@H](CCC(N)=O)NC(=O)c1ccccc1N)C(=O)N[C@@H](CCC(N)=O)C(=O)N[C@@H](C)C(=O)N[C@@H](CCCCN)C(=O)N[C@H](C(=O)N[C@@H](CCC(N)=O)C(=O)NCCNc1ccc([N+](=O)[O-])cc1[N+](=O)[O-])C(C)C	Mitochondrial intermediate peptidase (MIPEP, Homo sapiens, UniProt Q99797)	substrate, FRET peptide hydrolysis	–	–	–	kcat	0.0943 s⁻¹
C=CC(=O)N1CCC(c2cc(Nc3cc4n(n3)CCOC4)c3ncnn3c2)C1 (single isomer, unassigned)	TMD8 wild type	calcium flux, FLIPR	–	2 h preincubation, with: anti-IgM	–	IC50	> 1 µM
CCOC(=O)/C=C/CNCCCCN1c2ccccc2CCc2ccc(Cl)cc21	E3 ubiquitin-protein ligase HECW2 (HECW2, Homo sapiens, UniProt Q9P2P5)	inhibitor, Ub-TR-FRET	–	100 µM, 1 h preincubation, DMSO up to 2%, with: ATP 2 mM	higher = more ubiquitination	ubiquitination TR-FRET signal AUC	352000 a.u.
Cc1cccc2nc(-c3ccc4c(c3)C(=O)N(C3CCC(=O)NC3=O)C4=O)c(NC(C)(C)CC(C)(C)C)n12 (stereo not drawn)	WEE1/CRBN (Homo sapiens, UniProt P30291+Q96SW2)	degrader, HiBiT	Jurkat	5 h	–	Dmax	85%
Nc1ncnc2c1c(-c1ccc(C(=O)Nc3cc(C(F)(F)F)ccn3)cc1)nn2[C@@H]1CCCN(C(=O)C2CC2)C1	Tyrosine-protein kinase BTK, non-phosphorylated (BTK, Homo sapiens, UniProt Q06187)	TR-FRET binding kinetics	–	25 °C, unphosphorylated protein	–	residence time	19.9 min
Nc1nc(SCc2ccc(Cl)cc2)nn1S(=O)(=O)c1ccc2[nH]cnc2c1	Lysophospholipase-like protein 1	activator, gel-based ABPP, FP-rhodamine	HEK293 overexpressing Lysophospholipase-like protein 1	10 µM	–	activation	124%
O=C(Nc1ccccc1)C12CC1/C(=N\O)c1cc(F)ccc1O2 (stereo not drawn)	GRM4	positive allosteric modulator, calcium mobilization	CHO expressing Gqi5	concentration not given, with: glutamate EC20	reference: glutamate 1 mM	response	245%
O=C(CCl)Nc1ccc2c(Nc3ccccc3)ncnc2c1	EPHB3 (Homo sapiens, UniProt P54753)	ESI-MS	–	covalent adduct	–	protein mass increase	275 Da
CC(C)n1nnc(-c2cccc(Nc3ncnn4ccc(CN5CCC(N)CC5)c34)c2)n1	AAK1 (Homo sapiens, UniProt Q2M2I8)	enzyme activity, inhibitor	–	–	reference: 2	potency fold increase	7 fold
CCc1ccc(C(=O)Nc2ccccc2C(=O)O)cc1S(=O)(=O)Nc1ccc(Cl)c(Cl)c1	RPA1 N-terminal domain	binding, fluorescence polarisation competition	–	with: FITC-ATRIP probe	–	ligand efficiency	0.23
CCOC(=O)/C=C/CNCCCN1c2ccccc2CCc2ccc(Br)cc21	E3 ubiquitin-protein ligase NEDD4	inhibitor, Ub-TR-FRET	–	3.704 µM, 1 h preincubation, HECT domain, with: ATP 2 mM	higher = more ubiquitination	ubiquitination TR-FRET signal AUC	77400 a.u. and 88000 a.u. and 78400 a.u.
COc1ccc2nc(SCC(=O)Nc3ccc(SC)cc3)[nH]c2c1	FPR1 (Homo sapiens, UniProt P21462)	calcium mobilization, agonist	transfected HL-60 cells	concentration not given	–	activity class	active
CCn1c(-c2cc(NC(=O)c3cnccn3)n[nH]2)cc2ccccc21	CSNK2A2 (Homo sapiens, UniProt P19784)	enzyme activity, inhibitor	–	–	–	maximal inhibition	~65%

For quick reference, copied from above:
Structure (SMILES)	target or system	assay	test system	conditions	scale	quantity	result
O=C(CCl)Nc1ccc2c(Nc3ccccc3)ncnc2c1	EPHB3 (Homo sapiens, UniProt P54753)	ESI-MS	–	covalent adduct	–	protein mass increase	275 Da
CC(C)n1nnc(-c2cccc(Nc3ncnn4ccc(CN5CCC(N)CC5)c34)c2)n1	AAK1 (Homo sapiens, UniProt Q2M2I8)	enzyme activity, inhibitor	–	–	reference: 2	potency fold increase	7 fold
CCc1ccc(C(=O)Nc2ccccc2C(=O)O)cc1S(=O)(=O)Nc1ccc(Cl)c(Cl)c1	RPA1 N-terminal domain	binding, fluorescence polarisation competition	–	with: FITC-ATRIP probe	–	ligand efficiency	0.23
